{"data": "Measurements of several laboratories", "note": "A part holds a random share of what one study measured. Several values in a cell are separate wells, animals, samples, runs or records."}
{"data": "Sample 1", "Compound": "N=C(N)NCCCCCCN1CCC23c4c5ccc(O)c4OC2c2nc4ccccc4cc2CC3(O)C1C5 (stereo not drawn)", "target": "Mu-type opioid receptor (OPRM1, Homo sapiens, UniProt P35372)", "mode": "competitor", "method": "radioligand binding", "chain of UniProt P35372 (whole entry, looked up)": "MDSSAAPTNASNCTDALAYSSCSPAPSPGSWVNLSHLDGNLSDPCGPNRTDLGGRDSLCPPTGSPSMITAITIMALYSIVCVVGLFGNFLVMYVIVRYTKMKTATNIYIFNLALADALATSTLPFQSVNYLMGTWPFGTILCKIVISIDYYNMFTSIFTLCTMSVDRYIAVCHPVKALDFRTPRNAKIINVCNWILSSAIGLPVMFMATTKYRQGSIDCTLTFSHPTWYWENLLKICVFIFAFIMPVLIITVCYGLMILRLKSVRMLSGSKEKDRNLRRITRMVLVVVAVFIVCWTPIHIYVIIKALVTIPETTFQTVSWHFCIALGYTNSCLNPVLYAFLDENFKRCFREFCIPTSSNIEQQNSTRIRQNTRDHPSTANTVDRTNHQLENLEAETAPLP"}
{"tested at": "10 µM", "specific binding": "1.43% and -0.974% and 1.33%"}
{"tested at": "10 pM", "specific binding": "121% and 94.4% and 132%"}
{"tested at": "10 nM", "specific binding": "88.8% and 106% and 133%"}
{"tested at": "1 nM", "specific binding": "113% and 95.4% and 146%"}
{"data": "Sample 2", "SMILES": "CCCCC[C@@H]1CC(=O)N[C@@H](C(C)C)C(=O)N[C@H](CCCNC(=N)N)C(=O)N[C@@H](CO)C(=O)NCC(=O)N(C)[C@H](Cc2ccccc2)C(=O)N[C@@H](CC(C)C)C(=O)N[C@H](CCCNC(=N)N)C(=O)N[C@@H](CC(N)=O)C(=O)N[C@H](C(C)C)C(=O)N[C@H](Cc2c[nH]c3ccccc23)C(=O)NCCCC(=O)O1"}
{"organism": "Staphylococcus aureus", "strain": "USA300", "added": "menaquinone 4 µg/mL", "MIC": "32 mg/L"}
{"organism": "Staphylococcus aureus", "strain": "USA300", "added": "ubiquinone 64 µg/mL", "MIC": "4 mg/L"}
{"organism": "Escherichia coli", "observed": "microbial growth", "time": "16 h", "MIC": "> 64 mg/L"}
{"organism": "Staphylococcus aureus", "strain": "USA300", "added": "menaquinone 0 µg/mL", "MIC": "4 mg/L"}
{"organism": "Staphylococcus aureus", "strain": "USA300", "added": "menaquinone 64 µg/mL", "MIC": "> 64 mg/L"}
{"data": "Sample 3", "SMILES": "Cc1ccc(O)c(C)c1-c1cnc2[nH]c(-c3cnc(N4CCC(CN5CCN(c6ccc(N7CCC(=O)NC7=O)cc6F)CC5)CC4)nc3)cc2c1C#N", "cell line": "HCC1569", "method": "in-cell western", "refers to": "CDK1 phospho-Thr14"}
{"tested at": "37.04 nM", "pCDK1 (Thr14) level": "19% and 28.9%"}
{"tested at": "12.35 nM", "pCDK1 (Thr14) level": "15.3% and 16.3%"}
{"tested at": "111.11 nM", "pCDK1 (Thr14) level": "44.4% and 43.2%"}
{"tested at": "333.33 nM", "pCDK1 (Thr14) level": "65.9% and 58%"}
{"tested at": "1000 nM", "pCDK1 (Thr14) level": "99.9% and 95.5%"}
{"data": "Other studies, line by line"}
{"Structure (SMILES)": "Cn1cc(-c2cccc(CN3CCC4(CC3)COc3c4ccc4c3CN([C@H]3CCC(=O)NC3=O)C4=O)c2)cn1", "cell line": "Jurkat", "tested at": "100 nM", "time": "24 h", "added": "CD3/CD28 beads, 1:4", "endpoint": "IL-2 level", "result": "162 pg/mL and 160 pg/mL and 156 pg/mL"}
{"note": "For quick reference, copied from above (sample 2):"}
{"organism": "Staphylococcus aureus", "strain": "USA300", "added": "ubiquinone 64 µg/mL", "MIC": "4 mg/L"}
{"organism": "Escherichia coli", "observed": "microbial growth", "time": "16 h", "MIC": "> 64 mg/L"}
